Assay results gathered from unrelated publications.
Protocols differ between the studies behind these lines.
Target: Muscarinic acetylcholine receptor M2 (CHRM2, Homo sapiens, UniProt P08172)

| SMILES | test | system | conditions | scale | measurement | result |
| --- | --- | --- | --- | --- | --- | --- |
| CCOC(=O)[C@](CC)(CCCSCCOCCOCCNC(=O)c1ccc(-c2c3ccc(=N)c(S(=O)(=O)O)c-3oc3c(S(=O)(=O)O)c(N)ccc23)c(C(=O)O)c1)NC(=O)c1ccc(C2CC2)c(Cc2ccc(F)cc2)n1 | ligand displacement, radioligand | – | 10 µM | – | inhibition | 8% |
| N[C@H](C(=O)N1CCCC1)C1CCN(c2nccc3c(-c4ncc(Cl)cc4Cl)cccc23)CC1 | functional response, agonist | – | 10 µM | – | response | -5% |
| CCc1nnc(-c2c(OC)cc(-c3cnc4cc(-c5cnn(C)c5)ccn34)cc2OC)o1 | antagonist radioligand, radioligand binding | – | 10 µM, SafetyScreen44 M2 replicate 2 | lower = stronger displacement | remaining binding | 91.5% |
| C[C@H](NCc1ccc(-c2ccc(C(F)(F)F)cc2)cc1)C(N)=O | radioligand binding | – | 1 µM, added: [3H]N-methylscopolamine 0.80 nM | – | inhibition of binding | -2% |
| C[C@@H]1COCCN1c1nc(NCc2cccnc2C(F)(F)F)c2cccnc2n1 | binding | – | CEREP panel | – | IC50 | > 100 µM |
| CCN(CC)CCOc1ccc(-c2nnn(Cc3ccc(OC)cc3)c2N)cc1 | radioligand binding | HEK293 | 10 µM, safety profiling | – | inhibition | 41.2% |
| Cc1sc2c(c1C)C(c1ccc(Cl)cc1)=NC(CC(=O)OC(C)(C)C)c1nnc(C)n1-2 (stereo not drawn) | ligand displacement, radioligand | – | 1 µM | – | inhibition | 2% |
| CCO[C@H]1[C@H](O)[C@@H](N)[C@@H](O[C@H]2[C@H](O[C@@H]3O[C@H](CO)[C@@H](O[C@H]4O[C@@H](CN)[C@@H](O)[C@H](O)[C@H]4N)[C@H]3O)[C@@H](O)[C@H](N)C[C@@H]2N)O[C@@H]1CO | radioligand binding | – | 10 µM, 1% DMSO | – | specific binding | 0% |
| CS(C)(=O)=Nc1ccc(-c2ccc(-c3nc4cc(O[C@@H]5CO[C@H]6[C@@H]5OC[C@H]6O)[nH]c4cc3F)cc2)cc1 | calcium signal, antagonist | – | 10 µM | – | inhibition | -7% |
| COc1ccc(F)cc1S(=O)(=O)Nc1cnc2c(c1)C(=O)NCCO2 | ligand displacement, radioligand | – | 10 µM | – | inhibition | 1% |
| Cc1cc(Nc2nc(C[C@@]3(C(=O)O)CCN(Cc4cccc(Cl)c4F)[C@H](C)C3)cc(C)c2F)[nH]n1 | inhibitor | – | 10 µM | – | inhibition | 2.06% |
| C/C(=N\OCCCN1CCCCC1)c1ccc(C(F)(F)F)cc1 | agonist, IP-One | – | 10 µM | – | activation | -3.24% |
| CN[C@@H]1[C@H](O)[C@H](NC)[C@H]2O[C@]3(O)[C@H](O[C@@H]2[C@H]1O)O[C@H](C)C[C@H]3NC(=O)Cc1ccc(Cl)cn1 | ligand displacement, radioligand | – | 10 µM | – | inhibition | -3% |
| O=C(O)c1ccc(-c2nc(-c3ccccc3Cl)c3sccn23)cc1 | radioligand binding | – | 10 µM, safety screen panel | baseline: control | specific binding | 114% |
| Cc1cc(-c2ccc3ccccc3c2)nnc1NCCN1CCN(C)CC1 | antagonist | – | concentration not given | – | antagonist activity | negative |

A few entries again:
| SMILES | test | system | conditions | scale | measurement | result |
| --- | --- | --- | --- | --- | --- | --- |
| CCc1nnc(-c2c(OC)cc(-c3cnc4cc(-c5cnn(C)c5)ccn34)cc2OC)o1 | antagonist radioligand, radioligand binding | – | 10 µM, SafetyScreen44 M2 replicate 2 | lower = stronger displacement | remaining binding | 91.5% |
| C[C@H](NCc1ccc(-c2ccc(C(F)(F)F)cc2)cc1)C(N)=O | radioligand binding | – | 1 µM, added: [3H]N-methylscopolamine 0.80 nM | – | inhibition of binding | -2% |
